Assay results gathered from unrelated publications.
Parts stem from different laboratories: compare values within a part only.
Sequence of UniProt P07948 (whole entry, looked up): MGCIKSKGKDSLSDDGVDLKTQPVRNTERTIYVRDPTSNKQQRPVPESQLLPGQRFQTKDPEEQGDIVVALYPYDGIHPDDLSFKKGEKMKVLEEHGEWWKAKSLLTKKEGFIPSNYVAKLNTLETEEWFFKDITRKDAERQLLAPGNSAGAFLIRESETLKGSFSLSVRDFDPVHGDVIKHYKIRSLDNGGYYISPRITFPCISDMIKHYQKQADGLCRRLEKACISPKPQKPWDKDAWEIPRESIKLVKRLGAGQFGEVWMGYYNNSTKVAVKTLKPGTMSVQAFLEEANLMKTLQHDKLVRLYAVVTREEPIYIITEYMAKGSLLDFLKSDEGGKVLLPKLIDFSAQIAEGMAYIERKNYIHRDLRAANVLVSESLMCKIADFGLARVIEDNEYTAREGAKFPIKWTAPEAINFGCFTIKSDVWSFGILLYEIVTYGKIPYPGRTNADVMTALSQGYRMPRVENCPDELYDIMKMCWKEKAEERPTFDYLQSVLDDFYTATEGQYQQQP
Sequence of UniProt P35626 (whole entry, looked up): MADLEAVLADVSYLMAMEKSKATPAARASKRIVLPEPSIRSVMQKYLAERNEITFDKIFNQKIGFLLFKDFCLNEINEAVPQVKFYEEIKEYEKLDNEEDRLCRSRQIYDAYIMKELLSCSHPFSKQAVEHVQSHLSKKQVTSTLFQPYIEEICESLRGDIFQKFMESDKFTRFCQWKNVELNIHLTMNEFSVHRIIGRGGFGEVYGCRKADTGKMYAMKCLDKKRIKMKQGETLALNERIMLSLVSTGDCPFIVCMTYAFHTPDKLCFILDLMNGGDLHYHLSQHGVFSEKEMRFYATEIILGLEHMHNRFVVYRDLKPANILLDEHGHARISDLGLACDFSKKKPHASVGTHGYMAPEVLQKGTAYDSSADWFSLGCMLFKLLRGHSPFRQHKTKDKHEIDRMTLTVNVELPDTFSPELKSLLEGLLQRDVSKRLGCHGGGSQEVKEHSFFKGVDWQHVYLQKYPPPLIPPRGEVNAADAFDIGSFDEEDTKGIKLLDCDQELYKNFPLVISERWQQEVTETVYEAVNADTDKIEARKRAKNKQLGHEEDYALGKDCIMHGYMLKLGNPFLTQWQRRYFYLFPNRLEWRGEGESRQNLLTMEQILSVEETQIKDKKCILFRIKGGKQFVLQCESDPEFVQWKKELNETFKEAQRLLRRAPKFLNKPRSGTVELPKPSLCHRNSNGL
Sequence of UniProt Q13976 (whole entry, looked up): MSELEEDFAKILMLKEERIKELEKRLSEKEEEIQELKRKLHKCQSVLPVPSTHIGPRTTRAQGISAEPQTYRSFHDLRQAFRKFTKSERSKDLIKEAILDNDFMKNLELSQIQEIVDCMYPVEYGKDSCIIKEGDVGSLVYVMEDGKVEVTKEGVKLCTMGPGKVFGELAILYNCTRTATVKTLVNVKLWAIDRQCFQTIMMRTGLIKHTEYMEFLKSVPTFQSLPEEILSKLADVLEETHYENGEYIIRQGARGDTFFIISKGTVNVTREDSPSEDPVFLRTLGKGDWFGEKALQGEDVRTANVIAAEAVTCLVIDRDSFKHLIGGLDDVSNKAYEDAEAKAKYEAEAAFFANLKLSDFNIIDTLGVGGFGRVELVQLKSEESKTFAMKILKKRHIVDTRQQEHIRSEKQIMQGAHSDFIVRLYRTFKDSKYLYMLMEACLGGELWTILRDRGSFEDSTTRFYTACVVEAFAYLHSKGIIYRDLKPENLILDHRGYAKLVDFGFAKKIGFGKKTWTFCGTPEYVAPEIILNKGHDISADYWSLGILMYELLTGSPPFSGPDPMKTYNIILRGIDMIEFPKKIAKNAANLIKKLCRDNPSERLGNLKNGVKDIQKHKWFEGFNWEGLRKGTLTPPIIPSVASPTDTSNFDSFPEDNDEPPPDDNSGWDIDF
Sequence of UniProt Q00535 (whole entry, looked up): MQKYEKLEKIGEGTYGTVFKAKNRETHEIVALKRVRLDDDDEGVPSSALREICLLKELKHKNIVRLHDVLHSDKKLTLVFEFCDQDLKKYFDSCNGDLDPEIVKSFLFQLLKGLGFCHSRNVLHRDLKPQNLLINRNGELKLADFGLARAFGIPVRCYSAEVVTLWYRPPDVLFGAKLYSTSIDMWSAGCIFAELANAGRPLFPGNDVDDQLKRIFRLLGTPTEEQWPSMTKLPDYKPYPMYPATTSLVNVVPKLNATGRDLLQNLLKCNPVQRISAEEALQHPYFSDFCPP
Sequence of UniProt P36897 (whole entry, looked up): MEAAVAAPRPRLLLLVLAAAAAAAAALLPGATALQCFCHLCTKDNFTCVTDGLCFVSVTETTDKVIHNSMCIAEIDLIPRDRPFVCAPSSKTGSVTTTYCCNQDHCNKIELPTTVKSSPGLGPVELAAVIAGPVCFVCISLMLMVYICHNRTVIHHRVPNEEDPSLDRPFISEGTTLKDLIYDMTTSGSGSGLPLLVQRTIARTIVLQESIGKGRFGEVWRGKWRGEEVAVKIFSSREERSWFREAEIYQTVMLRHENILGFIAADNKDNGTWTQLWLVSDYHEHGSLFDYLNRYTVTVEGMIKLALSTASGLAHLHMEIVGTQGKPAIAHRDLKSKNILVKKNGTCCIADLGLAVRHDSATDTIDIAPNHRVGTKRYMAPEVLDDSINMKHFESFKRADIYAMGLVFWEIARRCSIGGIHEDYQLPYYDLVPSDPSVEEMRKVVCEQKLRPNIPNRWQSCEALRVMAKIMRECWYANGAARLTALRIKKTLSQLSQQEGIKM
Sequence of UniProt O95747 (whole entry, looked up): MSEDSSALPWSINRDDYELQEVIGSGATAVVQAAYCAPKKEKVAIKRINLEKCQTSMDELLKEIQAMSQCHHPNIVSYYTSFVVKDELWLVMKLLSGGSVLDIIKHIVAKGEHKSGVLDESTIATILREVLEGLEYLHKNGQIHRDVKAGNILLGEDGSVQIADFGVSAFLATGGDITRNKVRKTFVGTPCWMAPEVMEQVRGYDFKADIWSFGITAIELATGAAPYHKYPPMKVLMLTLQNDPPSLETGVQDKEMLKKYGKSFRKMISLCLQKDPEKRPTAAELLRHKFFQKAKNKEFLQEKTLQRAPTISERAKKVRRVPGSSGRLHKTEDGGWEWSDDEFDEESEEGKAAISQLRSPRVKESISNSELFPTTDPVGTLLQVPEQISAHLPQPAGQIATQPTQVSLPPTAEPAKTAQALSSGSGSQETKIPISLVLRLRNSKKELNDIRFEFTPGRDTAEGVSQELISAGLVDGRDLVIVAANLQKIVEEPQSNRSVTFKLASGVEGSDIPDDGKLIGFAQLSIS
Sequence of UniProt P37173 (whole entry, looked up): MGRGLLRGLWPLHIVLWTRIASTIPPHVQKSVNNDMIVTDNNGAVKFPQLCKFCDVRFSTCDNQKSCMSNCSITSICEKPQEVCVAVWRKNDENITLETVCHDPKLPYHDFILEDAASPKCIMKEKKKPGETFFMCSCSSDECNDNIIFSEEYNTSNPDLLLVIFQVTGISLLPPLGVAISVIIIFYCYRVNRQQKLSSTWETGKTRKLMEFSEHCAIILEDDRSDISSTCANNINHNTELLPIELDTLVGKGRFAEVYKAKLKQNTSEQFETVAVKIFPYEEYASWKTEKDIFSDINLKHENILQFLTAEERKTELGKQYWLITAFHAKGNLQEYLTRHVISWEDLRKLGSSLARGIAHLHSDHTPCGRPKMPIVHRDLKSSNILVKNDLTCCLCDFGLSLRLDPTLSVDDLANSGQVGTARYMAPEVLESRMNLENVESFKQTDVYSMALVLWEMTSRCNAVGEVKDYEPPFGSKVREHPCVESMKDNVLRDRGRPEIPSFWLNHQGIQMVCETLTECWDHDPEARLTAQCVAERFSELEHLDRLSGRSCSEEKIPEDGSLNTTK

Sample 1
Target: Ras GTPase-activating protein-binding protein 1, full length (G3BP1, Homo sapiens, UniProt Q13283)
Sequence of UniProt Q13283 (whole entry, looked up): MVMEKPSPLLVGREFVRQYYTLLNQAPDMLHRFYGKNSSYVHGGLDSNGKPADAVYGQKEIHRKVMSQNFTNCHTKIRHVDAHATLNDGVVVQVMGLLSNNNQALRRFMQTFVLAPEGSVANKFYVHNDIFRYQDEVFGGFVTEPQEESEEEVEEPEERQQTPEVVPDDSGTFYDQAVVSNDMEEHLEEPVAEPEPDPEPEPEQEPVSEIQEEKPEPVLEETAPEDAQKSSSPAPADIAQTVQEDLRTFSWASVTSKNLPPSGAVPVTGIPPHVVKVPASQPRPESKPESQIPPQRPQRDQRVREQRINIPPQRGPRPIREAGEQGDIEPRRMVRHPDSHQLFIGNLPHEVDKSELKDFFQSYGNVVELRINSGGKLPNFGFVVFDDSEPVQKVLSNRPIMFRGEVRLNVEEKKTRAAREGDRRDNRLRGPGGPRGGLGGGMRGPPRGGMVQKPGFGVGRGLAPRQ
Technique: RNA Bind-n-Seq
Molecule type: RNA
Sample: in vitro
Concentration: 200 nM
Notes: whole 134-nt RNA, ends assumed
With: 150 mM LiCl
Relative to: input library
Reading: higher = stronger binding
Each molecule: 7-deaza-guanosine replaces G
Constant ends, left off below: GGGAGUUCUACAGUCCGACGAUC … UGGAAUUCUCGGGUGUCAAGG
| Sequence | log2 enrichment |
| --- | --- |
| AAGUCCUGUGCUACACAUCGUAUGUACCGAAUCGGGUGGGUUUUUGGGUUUUUGGGAAAGUAUUAUGUUACGCCGUUCGGAUCUGCACUU | -0.401 |
| CCUGUGCUACACAUCGUAUGUACCGAAUCGGGGCCCCCCGGGGCCCCCCGGGCCCCCCGGAAAGUAUUAUGUUACGCCGUUCGGAUCUGC | -1.38 |
| UCAAGUCCUGUGCUACACAUCGUAUGUACCGAAUCGGGCCCGGCCCGGCCCGGGGAAAGUAUUAUGUUACGCCGUUCGGAUCUGCACUUC | -0.849 |
| CACAGACAACACGCACCCACACAGACACAGAGGGAAGGGGUUGGGAUGGGGACAGGGUGCACAGCAGGGCGGGGUAGGACCCCAGCCACU | -0.932 |
| GCAGGAAGUAAAAACAAAUGGAAAUGCUUCGGAUAGUGGCAGGGGUGGGGGUUCCUAAGGAAAGGGUGGGAUGGGAGUGGGUAAAGAGUU | -0.111 |
| CUGUGCUACACAUCGUAUGUACCGAAUCGGGGUUUUUUUGGGGAAAAAGGGGUUUUUGGGGAAAGUAUUAUGUUACGCCGUUCGGAUCUG | -1.55 |
| UCAAGUCCUGUGCUACACAUCGUAUGUACCGAAUCGGUGGAAAGGAAAAAAAGGAAAGUAUUAUGUUACGCCGUUCGGAUCUGCACUUCC | -0.862 |
| GUCCUGUGCUACACAUCGUAUGUACCGAAUCGGAAAAAAAGGAAAAAGGUUUUUUUGGAAAGUAUUAUGUUACGCCGUUCGGAUCUGCAC | -2.18 |

Sample 2
SMILES: O=C1Cc2c([nH]c3ccc(Br)cc23)-c2ccccc2N1
Read-out: enzyme activity
Action: inhibitor
Concentration: 0.5 µM
Relative to: control
| target | remaining activity [%] |
| --- | --- |
| DAPK2 (Homo sapiens, UniProt Q9UIK4) | 100 |
| CAMK2D (Homo sapiens, UniProt Q13557) | 91.1 |
| Tyrosine-protein kinase Lyn, isoform B (LYN, Homo sapiens, UniProt P07948) | 75.4 |
| NEK2 (Homo sapiens, UniProt P51955) | 87.1 |
| STK11 (Homo sapiens, UniProt Q15831) | 95.7 |
| DAPK1 (Homo sapiens, UniProt P53355) | 101 |
| Cyclin-dependent kinase 4, with cyclin D1 (CDK4, Homo sapiens, UniProt P11802) | 84 |
| MAPK9 (Homo sapiens, UniProt P45984) | 93.8 |
| OXSR1 (Homo sapiens, UniProt O95747) | 107 |
| MAP3K3 (Homo sapiens, UniProt Q99759) | 93.2 |
| Cyclin-dependent kinase 5, with p25 (CDK5, Homo sapiens, UniProt Q00535) | 64.8 |
| TGFBR1 (Homo sapiens, UniProt P36897) | 97.7 |
| IKBKB (Homo sapiens, UniProt O14920) | 101 |
| IKBKE (Homo sapiens, UniProt Q14164) | 89.8 |
| TGFBR2 (Homo sapiens, UniProt P37173) | 74.2 |
| cGMP-dependent protein kinase 1, isoform beta (PRKG1, Homo sapiens, UniProt Q13976) | 93 |
| Protein kinase C beta type, isoform beta-I (PRKCB, Homo sapiens, UniProt P05771) | 93.1 |
| GRK3 (Homo sapiens, UniProt P35626) | 109 |
| PRKCA (Homo sapiens, UniProt P17252) | 98.6 |
| CHEK2 (Homo sapiens, UniProt O96017) | 59 |
| STK10 (Homo sapiens, UniProt O94804) | 89.8 |
| PRKACA (Homo sapiens, UniProt P17612) | 102 |
| CAMKK2 (Homo sapiens, UniProt Q96RR4) | 77.8 |
| STK39 (Homo sapiens, UniProt Q9UEW8) | 90.1 |

Sample 3
Target: Translocator protein (Tspo, Rattus norvegicus, UniProt P16257)
Sequence of UniProt P16257 (whole entry, looked up): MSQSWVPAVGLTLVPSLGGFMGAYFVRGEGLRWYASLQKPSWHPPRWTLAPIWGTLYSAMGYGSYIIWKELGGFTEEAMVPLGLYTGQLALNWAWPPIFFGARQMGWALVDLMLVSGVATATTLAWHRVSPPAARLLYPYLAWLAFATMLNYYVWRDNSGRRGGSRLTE
Read-out: radioligand binding
Technique: radioligand displacement
Concentration: 10 µM
| Compound | inhibition [%] |
| --- | --- |
| FC(F)(F)c1ccc2c(c1)nc(-c1cccnc1)n2C1CC1 | -34.6 |
| COc1ccc2cc(OCC3(C(=O)O)CN(C(=O)c4ccc(F)cc4)C3)ccc2c1 | -30.5 |
| O=C(c1ccc(F)cc1)N1CC(COc2ccc(Br)cc2)(C(=O)O)C1 | 16.3 |
| CCS(=O)(=O)c1cc2cc(C[C@](O)(CC(C)(C)c3ccc(F)cc3C(N)=O)C(F)(F)F)[nH]c2cn1 | -21.4 |

Sample 4
Target: Hepatocyte nuclear factor 3-alpha (Foxa1, Mus musculus, UniProt P35582, residues 1-468, full length assumed)
Technique: EMSA with sequencing
Molecule type: double-stranded DNA, one strand shown
Sample: in vitro
Concentration: 10 and 20 nM
Notes: whole designed probe, mean of two concentrations, ends assumed
Relative to: negative control set to 0
Reading: higher = stronger binding
Constant ends, left off below: GTGAGCGGTGCCCATTGATGGGGAAC … TTTCACTGGGATCGTGGGGAC
Construct (chain): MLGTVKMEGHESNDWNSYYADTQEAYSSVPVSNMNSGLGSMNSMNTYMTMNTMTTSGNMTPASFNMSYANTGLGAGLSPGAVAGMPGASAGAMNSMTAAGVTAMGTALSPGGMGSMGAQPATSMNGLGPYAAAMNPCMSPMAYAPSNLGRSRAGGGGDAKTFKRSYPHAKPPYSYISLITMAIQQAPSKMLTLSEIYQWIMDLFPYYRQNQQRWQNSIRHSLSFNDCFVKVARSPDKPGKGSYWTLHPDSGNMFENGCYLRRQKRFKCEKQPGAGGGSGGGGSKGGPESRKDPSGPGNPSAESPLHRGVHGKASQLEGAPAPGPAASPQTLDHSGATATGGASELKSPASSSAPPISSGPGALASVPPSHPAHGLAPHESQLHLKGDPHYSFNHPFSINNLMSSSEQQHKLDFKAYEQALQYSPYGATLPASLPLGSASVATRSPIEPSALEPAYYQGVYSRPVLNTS
| Sequence | normalised bound fraction [ratio] |
| --- | --- |
| TTCTGAAATGTCTCCCTCAGCTTCTCTCATTCAAACGTAGACTCTGATCAATTTCACCATCAATGCCATTGCACAGAGACAGCGCTTTGACTAAGTAAACAAGACATCTTTTTCAACTAGTGCAGCCCAATGAATGTGGTTAATAATTAAGTGACTAATATTTTGTAAGGCTGTGTGAGAAGCATTAATTAGG | 0.505 |
| ATCTTCCCCCTCTTCCTTGCCCCACCAGCTCACCTTCCCGGGTATATTGGAGATAGTATTTATTTTCAAGCCGGCATTCGTTAACCCTCTTCTGGCGCAAACTGCCAGAGCAAACAGATGAATCATGGTCCTTTGGCGACGCCAGGCTCCGGGAGAGCAAAGCACCGTGTCAGGGCCATGATCCGGGGTGGCC | 0.231 |
| ATCTTCCCCCTCTTCCTTGCCCCACCAGCTCACCTTCCCGGGTTATTTGCAGATAGGAAAATAAATAAAGCCGGCATTCGTTAACGCAGTTCTGGCGCAAACTGCTGTTTGCTCTGGATGAATCATGGTCCTTTGGCGAGGCGTGGCTCCGGGAGAGCAAAGCACCGTGTCAGGGCCATGATCCGGGCTCGCC | 0.343 |
| ATCTTCCCCCTCTTCCTTGCCCCACCAGCTCACCTTCCCGGGTATATTGGAGATAGGAAATTAATATAAGCCGGCATTCGTTAACCCTCTTCACGCGCATACTGCCAGAGCAAACAGATGAATCATGGTCCTTTGGCGACGCCAGGCTCCGGGAGAGCAAAGCACCGTGTCAGGGCCATGATCCGGGGTGGCC | 0.148 |
| CACCAAACTTGACCTGCTCTCCACCCTCGGATCTAGTCAGGCTAGACAACACTGCTGTCAACAAATTTTAGGATCTCTGTGGCTGAACCTGGATGTTTACTTTTCATGCACACAGAGGCTACTGTGGATCTAGAGCCTCTCCATGGAAGCTCCCTGCAGATGGGTGGCTCCAGTCTCCAAGGGCTTCCATCTT | 0.446 |

Sample 5
Cell line: HaCaT
Concentration: 100 µM
Time: 18 h
| SMILES | viability |
| --- | --- |
| NC(=O)OCC(COC(N)=O)c1ccccc1 | 108% |
| CCN(CC)CCCC(C)Nc1c2ccc(Cl)cc2nc2ccc(OC)cc12 (centres unmarked) | 19.6% |
| COc1c2occc2c(OC)c2c(=O)cc(C)oc12 | 59.2% |
| CCCN(CCC)CCc1cccc2c1CC(=O)N2 | 111% |

Sample 6
Target: Centromere-binding protein 1, full length, His-tagged (CBF1, Saccharomyces cerevisiae, UniProt P17106, residues 1-351)
Sequence of UniProt P17106 (whole entry, looked up): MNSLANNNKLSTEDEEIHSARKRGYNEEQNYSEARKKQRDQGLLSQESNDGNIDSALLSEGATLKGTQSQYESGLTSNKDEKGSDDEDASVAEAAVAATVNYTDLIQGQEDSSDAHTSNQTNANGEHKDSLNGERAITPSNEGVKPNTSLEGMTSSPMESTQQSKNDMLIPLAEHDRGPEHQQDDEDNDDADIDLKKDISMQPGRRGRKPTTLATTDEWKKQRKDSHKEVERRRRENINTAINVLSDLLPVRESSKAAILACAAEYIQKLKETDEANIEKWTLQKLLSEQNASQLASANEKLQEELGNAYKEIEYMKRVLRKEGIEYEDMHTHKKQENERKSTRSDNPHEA
Technique: competition protein-binding microarray
Molecule type: double-stranded DNA, one strand shown
Sample: in vitro
Concentration: 2 µM
Notes: whole 60-bp probe, lowest competitor level
With: Pho4 competitor, 0.05 µM
Reading: higher = stronger binding
Constant ends, left off below: … GTCTTGATTCGCTTGACGCTGCTG
| Sequence | fluorescence intensity |
| --- | --- |
| ATGGACAATAACGACCACGTGGGTAACGCAATGACT | 2070 a.u. |
| TTGTCTCATATTACCCACGTGGAAGGCGCCCAACAT | 655 a.u. |
| TGCGCAACAACTTGATAAGTGGGTGTATGTCTAGAA | 70.2 a.u. |
| CAATGCACCCAACTGCATGTGCCATTGTGCATCTAC | 93.7 a.u. |
| CGGAATATGTTAGACCATGTGGTACCGTCGTTTTGG | 154 a.u. |
| TTACCGTCACCCGTACATGTGTGAGCAGAGGTACAA | 80.4 a.u. |
| CACCGATTGCGTAATCTCCTGTACACGGTTCAAGAA | 83.4 a.u. |
| AGGGCTCAGAACCTGCAGGTGAAGAAGCGCTTTAGA | 56.4 a.u. |

Excerpt of the above (sample 2):
| target | remaining activity [%] |
| --- | --- |
| Protein kinase C beta type, isoform beta-I (PRKCB, Homo sapiens, UniProt P05771) | 93.1 |
| IKBKB (Homo sapiens, UniProt O14920) | 101 |
| GRK3 (Homo sapiens, UniProt P35626) | 109 |
| TGFBR2 (Homo sapiens, UniProt P37173) | 74.2 |
| CAMK2D (Homo sapiens, UniProt Q13557) | 91.1 |
| STK10 (Homo sapiens, UniProt O94804) | 89.8 |
